Literature values as cited in several papers.
Compare with care: the assays were run in different laboratories. Converted amounts (≈) assume the structure as drawn.
Sequence of UniProt Q9BYP7 (whole entry, looked up): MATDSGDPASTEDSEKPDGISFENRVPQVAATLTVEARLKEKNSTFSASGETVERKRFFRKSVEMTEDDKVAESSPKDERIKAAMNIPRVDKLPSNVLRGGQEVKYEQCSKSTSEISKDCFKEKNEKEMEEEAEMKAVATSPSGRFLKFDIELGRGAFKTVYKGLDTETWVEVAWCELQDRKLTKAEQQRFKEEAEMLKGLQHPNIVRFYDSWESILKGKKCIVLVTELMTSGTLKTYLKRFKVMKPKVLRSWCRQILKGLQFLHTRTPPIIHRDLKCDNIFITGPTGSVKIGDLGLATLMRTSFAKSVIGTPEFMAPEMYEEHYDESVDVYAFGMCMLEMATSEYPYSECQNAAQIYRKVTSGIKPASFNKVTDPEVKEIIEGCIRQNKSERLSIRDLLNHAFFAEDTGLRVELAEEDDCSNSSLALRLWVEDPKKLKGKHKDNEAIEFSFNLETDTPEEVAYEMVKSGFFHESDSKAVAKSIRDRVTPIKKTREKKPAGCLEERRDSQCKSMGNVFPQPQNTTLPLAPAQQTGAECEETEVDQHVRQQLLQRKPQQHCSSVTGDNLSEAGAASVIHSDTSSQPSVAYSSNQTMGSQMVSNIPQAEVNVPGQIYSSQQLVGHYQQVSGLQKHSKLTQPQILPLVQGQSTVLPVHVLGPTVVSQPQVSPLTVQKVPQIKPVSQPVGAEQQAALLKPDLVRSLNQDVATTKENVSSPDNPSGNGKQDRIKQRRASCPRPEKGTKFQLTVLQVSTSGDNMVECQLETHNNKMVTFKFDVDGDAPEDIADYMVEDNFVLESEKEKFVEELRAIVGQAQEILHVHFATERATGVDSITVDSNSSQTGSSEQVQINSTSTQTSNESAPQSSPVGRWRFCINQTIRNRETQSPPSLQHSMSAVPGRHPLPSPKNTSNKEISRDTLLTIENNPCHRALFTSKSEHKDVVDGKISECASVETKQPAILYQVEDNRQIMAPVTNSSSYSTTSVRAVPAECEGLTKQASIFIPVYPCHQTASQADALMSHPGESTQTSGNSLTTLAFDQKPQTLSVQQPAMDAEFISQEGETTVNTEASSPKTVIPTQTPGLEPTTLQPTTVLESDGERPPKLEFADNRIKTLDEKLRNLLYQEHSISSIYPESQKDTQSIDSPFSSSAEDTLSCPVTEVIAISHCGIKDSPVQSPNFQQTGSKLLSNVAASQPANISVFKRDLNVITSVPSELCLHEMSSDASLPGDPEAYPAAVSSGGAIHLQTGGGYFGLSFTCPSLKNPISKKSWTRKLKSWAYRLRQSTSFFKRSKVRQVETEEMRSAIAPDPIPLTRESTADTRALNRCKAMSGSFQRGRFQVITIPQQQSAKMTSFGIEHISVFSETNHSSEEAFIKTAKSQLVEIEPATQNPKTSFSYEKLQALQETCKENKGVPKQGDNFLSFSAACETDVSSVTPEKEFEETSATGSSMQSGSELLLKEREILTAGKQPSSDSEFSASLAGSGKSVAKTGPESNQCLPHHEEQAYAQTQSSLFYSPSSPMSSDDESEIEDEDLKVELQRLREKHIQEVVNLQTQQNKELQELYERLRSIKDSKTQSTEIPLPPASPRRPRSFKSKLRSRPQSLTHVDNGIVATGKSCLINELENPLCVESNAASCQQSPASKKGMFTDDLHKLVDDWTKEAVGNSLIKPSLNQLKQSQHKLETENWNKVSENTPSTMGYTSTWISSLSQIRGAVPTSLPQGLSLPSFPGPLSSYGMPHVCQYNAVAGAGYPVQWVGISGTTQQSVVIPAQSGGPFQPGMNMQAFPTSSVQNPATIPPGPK

Cc1ncc([N+](=O)[O-])n1CCO
solubility (water): < 1000 µg/mL

C#Cc1cccc(Nc2ncnc3cc(OCCOC)c(OCCOC)cc23)c1
Cmax (plasma; concentration not given, total, steady state): 6060 nM

Cn1c(Cn2ccc(C(F)(F)F)c(Oc3cc(Cl)cc(C#N)c3)c2=O)n[nH]c1=O
exposure reduction (human; dose not given, strong CYP3A4 induction, added: rifampin): 88%

COC(=O)N[C@H](C(=O)N1CCC[C@H]1c1nc(-c2ccc3c(c2)O[C@@H](c2ccccc2)n2c-3cc3cc(-c4c[nH]c([C@@H]5CCCN5C(=O)[C@@H](NC(=O)OC)C(C)C)n4)ccc32)c[nH]1)C(C)C
unchanged drug excreted in faeces (bile duct-cannulated rats; oral, dose not given): 61%

O=C(O)c1cc(-c2ccc(F)cc2F)ccc1O
unbound Cmax (plasma; concentration not given): 490 nM

C[Si]1(C)O[Si](C)(C)O[Si](C)(C)O[Si](C)(C)O1
log KOA (dry 1-octanol/air; 25 °C): 4.31

CCN(CC)CCN(CCNCCc1ccc(O)c2[nH]c(=O)sc12)C(=O)CCOCCc1cccc2ccccc12
Clast (human, plasma; inhaled, dose not given): 0.052 nM

CC(C)(CO)c1cc2cc(NC(=O)C3(c4ccc5c(c4)OC(F)(F)O5)CC3)c(F)cc2n1C[C@@H](O)CO
AUCtau (human, cystic fibrosis, non-pregnant; dose not given, reported mean): 89300 ng·h/mL

CNC(C)C1CCC(N)C(OC2C(N)CC(N)C(OC3OCC(C)(O)C(NC)C3O)C2O)O1 (stereo not drawn)
MIC (Enterobacter cloacae; clinical isolate RKI-No_33/16): ≤ 0.5 µg/mL

COCCc1ccc(OC[C@H](O)CNC(C)C)cc1
AUCtau (human; oral, 100 mg single, enantiomer): 246 ng·h/mL

COc1c(N2C[C@@H]3CCCN[C@@H]3C2)c(F)cc2c(=O)c(C(=O)O)cn(C3CC3)c12
free Cmax (human): 3770 nM

CN(C)C(=N)N=C(N)N
unbound fraction (human, liver failure patients): 1

CC[C@@H]1C(=O)OC[C@@H]1Cc1cncn1C.Cl
free Cmax (plasma): 112 nM

Cc1cc(-c2nccc3c2ccn3CC(=O)Nc2ccc(-c3cnccn3)cn2)ccn1
Cmax, total (dog; 10 mg/kg/day, 1 month, repeat dosing): 3200 nM

CC(C)NCC(O)c1ccc(O)c(O)c1 (stereo not drawn)
diarrhoea incidence (human; concentration not given, clinical): 0%

CC(=O)[C@H]1CC[C@H]2[C@@H]3CC=C4C[C@@H](O)CC[C@]4(C)[C@H]3CC[C@]12C
solubility (water): < 1000 µg/mL

O=C1C(CC[S+]([O-])c2ccccc2)C(=O)N(c2ccccc2)N1c1ccccc1 (stereo not drawn)
Cmax (plasma; concentration not given, total, steady state): 55900 nM

CC(C)COCC(CN(Cc1ccccc1)c1ccccc1)N1CCCC1 (stereo not drawn)
free Cmax (human): 63.6 nM

COc1cc2nccc(Oc3ccc(NC(=O)C4(C(=O)Nc5ccc(F)cc5)CC4)cc3)c2cc1OC
median time to dose reduction (cancer patients, real-world; dose not given): 1.8 months

CC(C)[C@H](C(=O)Nc1ccc(C(=O)NO)cc1)c1ccccc1
Tmax (CD2F1 mouse; oral, 50 mg/kg single dose): 7.8 min

CNCc1cc(-c2ccccc2F)n(S(=O)(=O)c2cccnc2)c1
observed Ctrough (human; 20 mg maintenance dose): 1.67 ng/mL

CC(C)(Sc1cc(C(C)(C)C)c(O)c(C(C)(C)C)c1)Sc1cc(C(C)(C)C)c(O)c(C(C)(C)C)c1
solubility (water): < 1000 µg/mL

COc1cc(N2CCC(N3CCN(C)CC3)CC2)ccc1Nc1ncc(Cl)c(Nc2ccccc2P(C)(C)=O)n1
AUC(0-inf) (healthy subjects; 90 mg, single dose alone, itraconazole study): 6450 ng·h/mL

CC(=O)O[C@H]1C(=O)[C@@]2(C)[C@H]([C@H](OC(=O)c3ccccc3)[C@]3(O)C[C@H](OC(=O)[C@H](O)[C@@H](NC(=O)c4ccccc4)c4ccccc4)C(C)=C1C3(C)C)[C@]1(OC(C)=O)CO[C@@H]1C[C@@H]2O
grade 4 peripheral neuropathy incidence (pretreated metastatic breast cancer patients; 80 mg/m2 weekly, monotherapy): 0%

COC(=O)N[C@@H](C)CNc1nccc(-c2cn(C(C)C)nc2-c2cc(Cl)cc(NS(C)(=O)=O)c2F)n1
excreted fraction (human, urine; dose not given): 47%

O=C(O)[C@H]1O[C@@H](Oc2ccc([C@@H]3[C@@H](CC[C@H](O)c4ccc(F)cc4)C(=O)N3c3ccc(F)cc3)cc2)[C@H](O)[C@@H](O)[C@@H]1O
Tmax (human; oral, 20 mg ezetimibe, given alone, nearest sampling time): ~79.8 min

CN[C@@H](C)C(=O)N[C@H]1CN(S(=O)(=O)c2cccc(S(=O)(=O)N3CC[C@H]4CC[C@@H](C(=O)NC(c5ccccc5)c5ccccc5)N4C(=O)[C@@H](NC(=O)[C@H](C)NC)C3)c2)CC[C@H]2CC[C@@H](C(=O)NC(c3ccccc3)c3ccccc3)N2C1=O
clearance (cynomolgus monkey, plasma; dose not given): 11.3 mL/min/kg

CC(C)[C@H](N)C(=O)OCC(CO)OCn1cnc2c(=O)[nH]c(N)nc21 (stereo partly drawn)
oral bioavailability (monkey; 30 mg/kg): 42%

O=C(CCCN1CCC(O)(c2ccc(Cl)cc2)CC1)c1ccc(F)cc1
free Cmax (human): 4.26 nM

N[C@@H]1c2cccnc2[C@H](OC(=O)N2CCC(n3c(=O)[nH]c4ncccc43)CC2)CC[C@H]1c1cccc(F)c1F
unbound AUC ratio (human, severe hepatic impairment; relative to: normal hepatic function): 3.9 fold

Cc1nc(NC(=O)N2CCC[C@H]2C(N)=O)sc1-c1ccnc(C(C)(C)C(F)(F)F)c1
unchanged drug recovered (human, urine; oral, 400 mg, time not given, radiolabelled, fasted; relative to: dose): 2%

Nc1nc(=O)n(C2CSC(CO)O2)cc1F (stereo not drawn)
bioavailability (dog; 750 mg/kg): 73%

CN1CCC(COc2cnc(-c3cccc(Cn4nc(-c5cccc(C#N)c5)ccc4=O)c3)nc2)CC1
radioactivity as metabolites (human; dose not given, mass balance study): 48%

Nc1cccc2c1C(=O)N(C1CCC(=O)NC1=O)C2=O (stereo not drawn)
incidence of grade 3 fatigue (relapsed refractory multiple myeloma patients; dose not given, grade up to 4): 8%

CC1(C)S[C@@H]2[C@H](NC(=O)[C@H](N)c3ccccc3)C(=O)N2[C@H]1C(=O)O
MIC (Acinetobacter baumannii; clinical isolate RKI-No_272/16): > 16 µg/mL

CCCCc1nc(Cl)c(CO)n1Cc1ccc(-c2ccccc2-c2nn[nH]n2)cc1
crossover pressure (supercritical CO2): 190 to 210 bar

C[C@@H](Oc1ccc(S(C)(=O)=O)cc1C(=O)N1C[C@@H]2C[C@]2(c2cc(C(F)(F)F)on2)C1)C(F)(F)F
absolute bioavailability (human; oral, 25 mg, tablet, fasted): 72%

Nc1cc(C(F)(F)F)c(-c2nc(N3CCOCC3)nc(N3CCOCC3)n2)cn1
remaining activity (WNK3 (Homo sapiens, UniProt Q9BYP7); enzyme activity; 10 µM; relative to: untreated): 100%

CC(=O)O[C@@H]1CC[C@@]2(C)[C@@H](CC[C@]3(C)[C@@H]2C(=O)C=C2[C@@H]4[C@@H](C)[C@H](C)CC[C@]4(C)CC[C@]23C)[C@@]1(C)C(=O)O
aqueous solubility (water): < 1 µg/mL

COc1cc2nc(N3CCN(C(=O)c4ccco4)CC3)nc(N)c2cc1OC
crossover pressure (supercritical CO2): 180 to 200 bar

CO[C@H]1C(=O)[C@]2(C)[C@@H](OC)C[C@H]3OC[C@@]3(OC(C)=O)[C@H]2[C@H](OC(=O)c2ccccc2)[C@]2(O)C[C@H](OC(=O)[C@H](O)[C@@H](NC(=O)OC(C)(C)C)c3ccccc3)C(C)=C1C2(C)C
solubility (water): < 1000 µg/mL

N#CCNC(=O)c1ccc(-c2ccnc(Nc3ccc(N4CCOCC4)cc3)n2)cc1
AUC(0-inf) increase (severe hepatic impairment; dose not given; relative to: matched healthy participants): 97%

CN(C)C(=O)c1cc2cnc(Nc3ccc(N4CCNCC4)cn3)nc2n1C1CCCC1
adverse event incidence (refers to: diarrhea; advanced solid tumour or lymphoma patients; dose not given, continuous dosing; relative to: patients): 31.6%

CC1(C)CCC(CN2CCN(c3ccc(C(=O)NS(=O)(=O)c4ccc(NCC5CCOCC5)c([N+](=O)[O-])c4)c(Oc4cnc5[nH]ccc5c4)c3)CC2)=C(c2ccc(Cl)cc2)C1
absolute bioavailability (human, fasted; oral): 5.4%

Cc1cn([C@H]2C=C[C@@H](CO)O2)c(=O)[nH]c1=O
oral bioavailability (mouse): 98%

CCN1CCN(Cc2ccc(Nc3ncc(F)c(-c4cc(F)c5nc(C)n(C(C)C)c5c4)n3)nc2)CC1
Cmin (human; 100 mg twice daily multiple dose, tablet): 159 ng/mL

N#C[C@@]1(c2ccc3c(N)ncnn23)O[C@H](CO)[C@@H](O)[C@H]1O
plasma concentration (dog, plasma; intravenous, 2 mg/kg, 48 h, solution): 1.67 ng/mL

CCCS(=O)(=O)Nc1ccc(F)c(C(=O)c2c[nH]c3ncc(-c4ccc(Cl)cc4)cc23)c1F
solubility (FaSSIF; literature value): 5.4 µg/mL (≈ 11 µM)

C[C@@H](Oc1cc(-c2cnn(C3CCNCC3)c2)cnc1N)c1c(Cl)ccc(F)c1Cl
adverse event incidence (refers to: constipation; treatment-naive ALK-positive NSCLC patients; dose not given, monotherapy trial): 43%

NC(=O)OCC(COC(N)=O)c1ccccc1
solubility (water): < 1000 µg/mL

CC[C@H](C)CCCCC(=O)N[C@@H](CCN)C(=O)N[C@H](C(=O)N[C@@H](CCN)C(=O)N[C@H]1CCNC(=O)[C@H]([C@@H](C)O)NC(=O)[C@H](CCN)NC(=O)[C@H](CCN)NC(=O)[C@H](CC(C)C)NC(=O)[C@@H](Cc2ccccc2)NC(=O)[C@H](CCN)NC1=O)[C@@H](C)O
urinary excretion (rat, urine): < 5%
